Measurements of several laboratories.
Parts stem from different laboratories: compare values within a part only. Substitutions count along the parent as printed.

Series 1
Target: CCNE2, cyclin fold, Cln2 fusion (human)
Technique: yeast growth competition, sequencing
Matrix: yeast
Notes: strong parent motif
Relative to: not given
Reading: higher = stronger binding
Quantity: normalised enrichment score
Parent: CDC25A docking peptide (human); PPHRRRLLFACSP
L7Y: 0.526
P2G: 2.01
R4G: 1.1
S12V: 1.67
P1W: 1.22
A10V: 2.15
S12W: 1.87
P1R: 1.47
R6Y: 0.631
H3A: 1.51
P13I: 1.83
L7E: 0.787
R5D: 0.163
H3C: 3.9
R4L: 1.48
P2H: 2.57
L7G: 0.422

Series 2
Target: RNA binding protein fox-1 homolog 2, RRM domain, GST-SBP tag (RBFOX2, Homo sapiens, UniProt O43251-10, residues 100-194)
Technique: RNA Bind-n-Seq
Form: RNA
Matrix: in vitro
Tested at: 365 nM
Notes: natural RNA segment, single round, ends assumed
Relative to: no-protein control
Reading: higher = stronger binding
Quantity: RBNS enrichment (R)
Shared flanks, not repeated: GGGAGUUCUACAGUCCGACGAUC … UGGAAUUCUCGGGUGCCAA
Residues (chain): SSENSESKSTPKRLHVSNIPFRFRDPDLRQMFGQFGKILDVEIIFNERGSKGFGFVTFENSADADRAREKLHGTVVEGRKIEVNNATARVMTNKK
UCAGUAGCCUUGUGACACUGAACCUGGAUGGAUUAUAGAGGAGCCCUCACGGCUGAUCAAUAAUGUUGCAAAGGGAGACUACAGGGAUCUCACGACGAAUAUUCUGAUAC: 0.301
GAAGAUGGGUGCAUGAGAAUCUUGGCUCAGCCAAAGCCCCUUCAUGGAAAUACAAGCCAUAAAAUUCAAAAGGUGUCAAAAGACCUUGGCUUGUUUGGGGGUUUGUUCCC: 5.67
UUUAUUCAGUAUUUCUCCAAGUUGCUAUCUACUCAGCCUUAUGAAUGCCCCUCGCUUUUCUAAGGCCAUGUGAAAAUCACGGCACUGCCCUUAGCCUUGUGUCAUCUGCU: 0.467
CCCUCACUCCUACCUCCCAUAGAAGUGUAUUCUUAUCCCUAGUUCCUGUCUGAGUAAGCCAGGGUGGCAGACGCUGGUCCCAAACCUCACCCAGCAACCAGCCUCUCAUU: 0.588
GCAACUAUGAAUGAAAACAAAACACCACAAAACAGACUUCACUAACACAGAAAAACAGAAACUGAGUGUGAGAGUUGUGAAAUACAAGGAAAUGCAGUAAAGCCAGGGAA: 1.77
CUUCUCAUUUAUACAGUGCCUUUUUCUCAUGCUCAUUGUCUACUGACUUUAAGGCAGGCAACACUGGACCAUAGUGGUGCAGGCCUUCUAUUGAGGCCAGAGGAGCAAGU: 0.289
GUGCCACUGCUGUUGUCUGCUCAUUGUCCUGCCUGUUGCUCAUUAUAGCCCCUGUCCUUCAUGUGUCUGGCCAUGUAGACUCUCAGGCAUCCUGUCCAUUUUUAACCUGU: 0.897
AACCAGUGAAAAUGAAAGGAAGUUUCAGUAUUAGAUGCACUUAAGUUAGCCUCCACCACCCUUUCCCCCUUCUCUUAGUUAUUGCUGAAGAGGGUUGGUAUAAAAAUAAU: 0.595

Series 3
Target: Prothrombin, mature alpha-thrombin (F2, Homo sapiens, UniProt P00734)
Technique: aptamer microarray, sandwich
Form: DNA with 2'F-ANA
Matrix: in vitro
Tested at: 200 nM
Notes: whole 15-mer aptamer, many near background
With: Cy3 exosite-II aptamer, 400 nM
Reading: higher = stronger binding
Quantity: mean fluorescence intensity
Sequence: GGTTGGTGTGGTTGG
2'F-ANA at 2 6 8 9 11: 363 a.u.
2'F-ANA at 2 3 6 7 8 9 11 12: 934 a.u.
2'F-ANA at 3 5 6 7 13: 94.8 a.u.
2'F-ANA at 1 2 7 8 10 11 13 14 15: 53.2 a.u.
2'F-ANA at 1 2 5 6 7 10 12 15: 52.9 a.u.
2'F-ANA at 2 3 7 9 12 13 15: 828 a.u.
2'F-ANA at 2 3 5 9 10 15: 56.2 a.u.
2'F-ANA at 3 8 12 14: 729 a.u.
2'F-ANA at 2 3 4 11 13 14 15: 235 a.u.
2'F-ANA at 1 2 4 6 8 10 11 12 13: 56.4 a.u.
2'F-ANA at 1 5 6 8 9 10 12 14 15: 51.7 a.u.
2'F-ANA at 1 2 4 7 8 9 11 12 14: 57.4 a.u.
2'F-ANA at 1 4 5 8 9 10 11 12 13: 50 a.u.
2'F-ANA at 1 2 5 6 7 10 11 14 15: 46.5 a.u.
2'F-ANA at 2 3 4 5 6 7 8 9 10 11 14 15: 49.6 a.u.
2'F-ANA at 4 6 7 8 9 10 13 15: 79.6 a.u.
2'F-ANA at 3 7 8 10 11 14 15: 464 a.u.
2'F-ANA at 2 3 4 8 11 13 14 15: 248 a.u.
2'F-ANA at 1 3 4 5 8 9 10 11 15: 91.1 a.u.
2'F-ANA at 1 4 6 10 12 13 15: 56.9 a.u.
2'F-ANA at 3 4 6 7 9 11 15: 421 a.u.
2'F-ANA at 1 2 6 8 10 12 14: 46.8 a.u.

Series 4
Target: ABI1, truncated, D143A, DHFR fusion (Arabidopsis thaliana)
Technique: DHFR PCA, deep sequencing
Matrix: yeast
Notes: methotrexate growth selection, single substitutions
With: (+)-ABA 0.11 µM
Relative to: wild-type fitted maximum
Reading: higher = stronger binding
Quantity: relative binding score
Parent: PYL1, truncated, DHFR fusion (Arabidopsis thaliana); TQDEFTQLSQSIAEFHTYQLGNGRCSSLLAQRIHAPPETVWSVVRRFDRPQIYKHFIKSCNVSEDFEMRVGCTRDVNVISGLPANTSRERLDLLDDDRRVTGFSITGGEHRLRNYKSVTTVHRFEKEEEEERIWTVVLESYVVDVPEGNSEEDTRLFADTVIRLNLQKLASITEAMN; partner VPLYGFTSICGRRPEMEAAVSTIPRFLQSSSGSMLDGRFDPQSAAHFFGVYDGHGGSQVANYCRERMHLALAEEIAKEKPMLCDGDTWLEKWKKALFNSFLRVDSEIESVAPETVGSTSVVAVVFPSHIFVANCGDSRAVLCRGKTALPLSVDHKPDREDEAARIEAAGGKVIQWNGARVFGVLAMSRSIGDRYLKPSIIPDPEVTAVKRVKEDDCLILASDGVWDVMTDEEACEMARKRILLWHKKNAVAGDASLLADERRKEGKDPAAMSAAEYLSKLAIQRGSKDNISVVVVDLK
N165D: 15.3%
Q10K: 38.5%
H55T: 28.2%
N77S: 52.8%
M68K: -6.51%
I172Q: -14.1%
R24E: 14.2%
H110V: 11.3%
N22Q: 41.1%
E125H: 40.1%
S171F: 8.22%
F157K: 0.496%
N77P: 4.06%
E4D: 22.9%
F5G: 4.47%
R111A: 2.26%
V145K: -7.47%
T101V: 37.3%
T73V: 49.6%
F5A: 11.9%
N77W: 18%
S117R: -3.38%
M68W: -4.24%
R90M: 0.939%

Excerpt of the above (series 1):
R4L: 1.48
L7G: 0.422
P2G: 2.01
A10V: 2.15
L7E: 0.787
P2H: 2.57
S12W: 1.87
R5D: 0.163
